Published values pooled from the literature.
Protocols differ between the studies behind these lines. Numbers after ± are the reported error. Values after ≈ are worked out from the molar mass of the structure shown.

Compound	organism	assay	test system	setting	scale	measurement	result
Nc1ccn(C[C@@H](CO)OCP(=O)(O)OCCCS(=O)(=O)CCCCCCCCCCCCC2CCC2)c(=O)n1	Betapolyomavirus hominis	qPCR	Gardner		baseline: CC50 over EC50	selectivity index	8
CC[C@H](C)[C@H](NC(=O)[C@H](CO)NC(=O)[C@H](CO)NC(=O)[C@H](Cc1ccccc1)NC(=O)CN)C(=O)N[C@@H](Cc1ccccc1)C(=O)N[C@@H](CCCNC(=N)N)C(N)=O	Escherichia coli		ATCC 8739	together with: 0.5 mM KCl		MBC	> 128 µM
COc1ccc(N2C(=O)C=CC2=O)cc1	Candida albicans	qRT-PCR, measured: CDC35		1 µg/mL, 12 h	baseline: untreated	mRNA level	0.44 fold
CC[C@H](C)[C@H](NC(=O)[C@H](CCCCN)NC(=O)[C@H](CCCCN)NC(=O)[C@H](CC(C)C)NC(=O)[C@H](CCCCN)NC(=O)[C@H](CCC(=O)O)NC(=O)[C@H](CCCCN)NC(=O)[C@@H](NC(=O)[C@H](CCCCN)NC(=O)[C@H](CC(N)=O)NC(=O)[C@H](CCCNC(=N)N)NC(=O)[C@H](Cc1ccccc1)NC(=O)[C@H](CCCCN)NC(=O)[C@H](CCCNC(=N)N)NC(=O)[C@H](CC(C)C)NC(=O)[C@H](CCCNC(=N)N)NC(=O)[C@H](CCCCN)NC(=O)[C@H](CCCNC(=N)N)NC(=O)[C@H](CC(C)C)NC(=O)[C@@H](N)CCCNC(=N)N)[C@@H](C)CC)C(=O)NCC(=O)N[C@@H](CCC(N)=O)C(=O)N[C@@H](CCCCN)C(=O)N[C@H](C(=O)N[C@@H](CCC(N)=O)C(=O)NCC(=O)N[C@@H](Cc1ccccc1)C(=O)N[C@H](C(=O)N1CCC[C@H]1C(=O)N[C@@H](CCCCN)C(=O)N[C@@H](CC(C)C)C(=O)N[C@@H](CCC(N)=O)C(=O)N1CCC[C@H]1C(=O)N[C@@H](CO)C(=O)N[C@@H](CCCCN)C(=O)N[C@@H](CCC(N)=O)C(=O)N[C@@H](CO)C(=O)O)C(C)C)[C@@H](C)CC	Micrococcus luteus	inhibition zone	CGMCC 1.029			lethal concentration	1.5 µM
CN[C@@H]1[C@H](O)[C@H](NC)[C@H]2O[C@]3(O)[C@H](O[C@@H]2[C@H]1O)O[C@H](C)C[C@]3(O)CNCc1ccc(OC(F)(F)F)cc1	Neisseria gonorrhoeae		ATCC 49226	40 µg per disc		inhibition zone diameter	8.2 to 8.8 mm
CNC(=O)CNc1cnc2ccc(-c3ccc(OC)c(OC)c3)cc2n1	Cryptosporidium parvum	cytopathic effect	HCT-8	concentration not given		antiparasitic activity	inactive
CCCCc1ccc(-c2nc(C)c(C(C)=NNC(=N)N)s2)cc1	Staphylococcus aureus		VRS5 VRSA			MBC	1.3 µg/mL
CN(C)CCNC(=O)/C=C/C(Cc1ccccc1)Nc1ccnc2cc(Cl)ccc12 (stereo not drawn)	Plasmodium berghei		NAT atovaquone-resistant, ICR mouse infected	10 mg/kg, 0 days post infection before treatment		body weight	27.7 ± 1.28 g
C#CCCCOP(=O)(O)Oc1c2c(c(OP(=O)(O)OCCCC#C)c3c1C1CC3c3cc4c(cc31)C1CC4c3ccccc31)C1CC2c2cc3c(cc21)C1CC3c2ccccc21	measles virus	viral infection, flow cytometry	A549, vaccine strain GFP	2 days, virus pre-incubated 30 min 37 °C		IC50	30.1 µM
CCCCCCCCCCCCCC(=O)N[C@H](CCN)C(=O)N[C@@H]1C(=O)N[C@@H](CCN)C(=O)N[C@@H](CC(C)C)C(=O)N[C@@H](CCN)C(=O)N[C@H](Cc2ccccc2)C(=O)N[C@@H](CC(C)C)C(=O)N[C@@H](CCN)C(=O)N[C@H](CCN)C(=O)N[C@@H](C(C)C)C(=O)N[C@@H](CC(=O)O)C(=O)O[C@@H]1C	Neisseria gonorrhoeae		ATCC 31426, neutropenic mice, vaginal infection	subcutaneous, 20 mg/kg/day, 3 days		reduction in bacterial burden	2.83 log10 CFU
CON(C(=O)c1cn(C)nc1C(F)F)C(C)Cc1c(Cl)cc(Cl)cc1Cl (stereo not drawn)	Exserohilum turcicum	microbial growth		1.56 µg/mL		inhibition	100%
C[C@@](O)(C(F)F)[C@H](NC(=O)c1ccc(C#CC#CC2CC2)cc1)C(=O)NO	Citrobacter koseri	agar dilution	clinical isolates			MIC90	0.125 µg/mL (≈ 0.332 µM)
CC[C@H](C)[C@H](NC(=O)[C@H](CCCCN)NC(=O)[C@H](CCCCN)NC(=O)[C@H](CC(C)C)NC(=O)[C@H](CCCCN)NC(=O)[C@H](CCC(=O)O)NC(=O)[C@H](CCCCN)NC(=O)[C@@H](NC(=O)[C@H](CCCCN)NC(=O)[C@H](CC(N)=O)NC(=O)[C@H](CCCNC(=N)N)NC(=O)[C@H](Cc1ccccc1)NC(=O)[C@H](CCCCN)NC(=O)[C@H](CCCNC(=N)N)NC(=O)[C@H](CC(C)C)NC(=O)[C@H](CCCNC(=N)N)NC(=O)[C@H](CCCCN)NC(=O)[C@H](CCCNC(=N)N)NC(=O)[C@H](CC(C)C)NC(=O)[C@@H](N)CC(C)C)[C@@H](C)CC)C(=O)NCC(=O)N[C@@H](CCC(N)=O)C(=O)N[C@@H](CCCCN)C(=O)N[C@H](C(=O)N[C@@H](CCC(N)=O)C(=O)NCC(=O)N[C@@H](Cc1ccccc1)C(=O)N[C@H](C(=O)N1CCC[C@H]1C(=O)N[C@@H](CCCCN)C(=O)N[C@@H](CC(C)C)C(=O)N[C@H](C(=O)N1CCC[C@H]1C(=O)N[C@@H](CCCNC(=N)N)C(=O)N[C@H](C(=O)N[C@@H](CCC(=O)O)C(=O)N[C@@H](CO)C(=O)O)[C@@H](C)O)C(C)C)C(C)C)[C@@H](C)CC	Streptomyces griseus	inhibition zone	NBRC 13350	37 °C, LB agar, 154 mM NaCl		lethal concentration	5.68 µM
COC1=CC(c2ccc[nH]2)=NC1=CNC1CCCCCCC1	Plasmodium falciparum		HepG2, D6		baseline: HepG2 IC50 over D6 IC50	selectivity index	2020
CC[C@H](C)[C@H](NC(=O)[C@H](CCCCN)NC(=O)[C@H](CCCCN)NC(=O)[C@H](CC(C)C)NC(=O)[C@H](CCCCN)NC(=O)[C@H](CCC(=O)O)NC(=O)[C@H](CCCCN)NC(=O)[C@@H](NC(=O)[C@H](CCCCN)NC(=O)[C@H](CC(N)=O)NC(=O)[C@H](CCCNC(=N)N)NC(=O)[C@H](Cc1ccccc1)NC(=O)[C@H](CCCCN)NC(=O)[C@H](CCCNC(=N)N)NC(=O)[C@H](CC(C)C)NC(=O)[C@H](CCCNC(=N)N)NC(=O)[C@H](CCCCN)NC(=O)[C@H](CCCNC(=N)N)NC(=O)[C@H](CC(C)C)NC(=O)CN)[C@@H](C)CC)C(=O)NCC(=O)N[C@@H](CCC(N)=O)C(=O)N[C@@H](CCCCN)C(=O)N[C@H](C(=O)N[C@@H](CCC(N)=O)C(=O)NCC(=O)N[C@@H](Cc1ccccc1)C(=O)N[C@H](C(=O)N1CCC[C@H]1C(=O)N[C@@H](CCCCN)C(=O)N[C@@H](CC(C)C)C(=O)N[C@@H](C)C(=O)N1CCC[C@H]1C(=O)N[C@@H](CCCNC(=N)N)C(=O)N[C@H](C(=O)N[C@@H](CC(=O)O)C(=O)N[C@@H](Cc1ccc(O)cc1)C(=O)O)[C@@H](C)O)C(C)C)[C@@H](C)CC	Salmonella	inhibition zone	DZ.3G	LB agar, overnight		lethal concentration	1.94 µM
CC(C)C[C@H](NC(=O)[C@H](CC(=O)O)NC(=O)[C@H](CC(C)C)NC(=O)[C@H](CC(=O)O)NC(=O)CNC(=O)[C@@H]1CCCN1C(=O)[C@H](CCCCN)NC(=O)[C@H](CC(C)C)NC(=O)[C@H](Cc1c[nH]c2ccccc12)NC(=O)[C@@H]1CCCN1)C(=O)O	dengue virus 2		LLC-MK2, New Guinea C	500 µM	baseline: untreated	plaque reduction	40.6 ± 24.8%
[O-][N+]1=C(c2ccsc2)C2=NCCCN2c2ccccc21	Fusobacterium nucleatum	microbial growth	ATCC25586			MIC	0.125 µg/mL (≈ 0.441 µM)
N=C(N)NCCC[C@H](NC(=O)[C@H](Cc1c[nH]c2ccccc12)NC(=O)[C@H](CCCNC(=N)N)NC(=O)[C@H](CCCNC(=N)N)NC(=O)[C@@H]1CCCN1C(=O)[C@H](CCCCN)NC(=O)[C@@H](N)CCCNC(=N)N)C(=O)N[C@@H](Cc1c[nH]c2ccccc12)C(=O)N[C@@H](Cc1c[nH]c2ccccc12)C(=O)N1CCC[C@H]1C(=O)N[C@@H](CCCCN)C(=O)N[C@@H](CCCNC(=N)N)C(=O)N1CCC[C@H]1C(=O)O	Staphylococcus aureus		09057, BALB/c mice, sepsis, liver, kidney, spleen, lungs	intraperitoneal, 20 mg/kg, 12 h, dosed 1 h post-infection	baseline: saline	reduction of organ bacterial load	0.44 to 1.15 log CFU/g
CC(=NNC(=N)N)c1nnn(-c2ccc(C#CC3(O)CCCCC3)cc2)c1C	Neisseria gonorrhoeae		WI-38, 181		baseline: WI-38 IC50 over MIC	selectivity index	2.19
CC[C@H](C)[C@H](NC(=O)[C@H](CCCCN)NC(=O)[C@H](CCCCN)NC(=O)[C@H](CC(C)C)NC(=O)[C@H](CCCCN)NC(=O)[C@H](CCC(=O)O)NC(=O)[C@H](CCCCN)NC(=O)[C@@H](NC(=O)[C@H](CCCCN)NC(=O)[C@H](CC(N)=O)NC(=O)[C@H](CCCNC(=N)N)NC(=O)[C@H](Cc1ccccc1)NC(=O)[C@H](CCCCN)NC(=O)[C@H](CCCNC(=N)N)NC(=O)[C@H](CC(C)C)NC(=O)[C@H](CCCNC(=N)N)NC(=O)[C@H](CCCCN)NC(=O)[C@H](CCCNC(=N)N)NC(=O)[C@@H](N)CC(C)C)[C@@H](C)CC)C(=O)NCC(=O)N[C@@H](CCC(N)=O)C(=O)N[C@@H](CCCCN)C(=O)N[C@H](C(=O)N[C@@H](CCC(N)=O)C(=O)NCC(=O)N[C@@H](Cc1ccccc1)C(=O)N[C@H](C(=O)N1CCC[C@H]1C(=O)N[C@@H](CCCCN)C(=O)N[C@@H](CC(C)C)C(=O)O)C(C)C)[C@@H](C)CC	Micrococcus luteus	inhibition zone	CGMCC 1.029			lethal concentration	0.9 µM
CN[C@@H]1[C@H](O)[C@H](NC)[C@H]2O[C@]3(O)[C@H](O[C@@H]2[C@H]1O)O[C@H](C)C[C@@]3(O)CNCc1ccc(Cl)cc1	Neisseria gonorrhoeae		ATCC 49226	40 µg per disc		inhibition zone diameter	20 to 22 mm

Some of these lines once more:
Compound	organism	assay	test system	setting	scale	measurement	result
CN(C)CCNC(=O)/C=C/C(Cc1ccccc1)Nc1ccnc2cc(Cl)ccc12 (stereo not drawn)	Plasmodium berghei		NAT atovaquone-resistant, ICR mouse infected	10 mg/kg, 0 days post infection before treatment		body weight	27.7 ± 1.28 g
C#CCCCOP(=O)(O)Oc1c2c(c(OP(=O)(O)OCCCC#C)c3c1C1CC3c3cc4c(cc31)C1CC4c3ccccc31)C1CC2c2cc3c(cc21)C1CC3c2ccccc21	measles virus	viral infection, flow cytometry	A549, vaccine strain GFP	2 days, virus pre-incubated 30 min 37 °C		IC50	30.1 µM
